Published values of several laboratories.
A part holds a random share of what one study measured. Substitutions count along the parent as printed.

Sample 1 — method: DHFR PCA, deep sequencing; medium: yeast; with: (+)-ABA 200 µM; reference: wild-type fitted maximum; direction: higher = stronger binding
Target: ABI1, truncated, D143A, DHFR fusion (Arabidopsis thaliana)
Setting: methotrexate growth selection, single substitutions
Parent: PYL1, truncated, DHFR fusion (Arabidopsis thaliana); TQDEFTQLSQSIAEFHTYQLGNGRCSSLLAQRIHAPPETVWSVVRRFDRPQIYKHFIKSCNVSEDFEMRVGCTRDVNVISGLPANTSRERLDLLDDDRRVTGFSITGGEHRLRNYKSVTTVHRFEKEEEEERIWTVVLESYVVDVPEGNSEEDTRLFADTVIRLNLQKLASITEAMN; partner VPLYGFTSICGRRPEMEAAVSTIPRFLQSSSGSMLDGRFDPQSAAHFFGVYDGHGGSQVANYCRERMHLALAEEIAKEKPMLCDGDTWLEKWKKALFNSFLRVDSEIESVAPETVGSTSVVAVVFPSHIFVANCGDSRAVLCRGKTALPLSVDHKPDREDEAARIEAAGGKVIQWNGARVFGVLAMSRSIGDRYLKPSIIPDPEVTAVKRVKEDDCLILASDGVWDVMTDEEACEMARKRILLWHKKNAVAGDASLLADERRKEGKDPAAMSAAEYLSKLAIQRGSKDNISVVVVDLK
Change	relative binding score [%]
T1A	92.9
R49S	94.7
D159A	60.9
G81R	20.5
N114C	46.8
A170Q	94.6
S117F	-11.8
E4I	99.4
E125R	104
E131V	107
L28H	58.8
K126G	107
I172T	91.7

Sample 2 — method: protein binding microarray; form: double-stranded DNA, one strand shown; medium: in vitro; tested at: not given; reference: not given; direction: higher = stronger binding
Target: Histone acetyltransferase KAT6A, winged helix 1, GST fusion (KAT6A, Homo sapiens, UniProt Q92794, residues 1-85)
Setting: 8-mer, flanks averaged, mean of 2 arrays, mostly near background
Target sequence (chain): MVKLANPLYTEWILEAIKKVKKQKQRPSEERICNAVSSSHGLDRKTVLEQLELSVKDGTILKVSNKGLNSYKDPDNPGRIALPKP
Sequence	E-score
CTAGGGCA	-0.157
ATAATCTG	-0.14
TACATGCA	-0.0005
AATTAGAC	-0.311
GAGTTCGA	-0.0959
ACCAGCCT	-0.163
ACCATAAC	-0.0254
GAACAGTA	0.0342
ACACCTGC	-0.0463
AGTGCGAC	0.243
GTTTATGA	-0.127
GTTGCAAA	-0.181
AAAGGGAT	-0.194
CGCCGCAG	0.328

Sample 3 — method: competition protein-binding microarray; form: double-stranded DNA, one strand shown; medium: in vitro; tested at: 2 µM; with: Cbf1 competitor, 0.05 µM; direction: higher = stronger binding
Target: Phosphate system positive regulatory protein PHO4, full length, GST-tagged (PHO4, Saccharomyces cerevisiae, UniProt P07270, residues 1-312)
Setting: whole 60-bp probe, lowest competitor level
Residues (chain): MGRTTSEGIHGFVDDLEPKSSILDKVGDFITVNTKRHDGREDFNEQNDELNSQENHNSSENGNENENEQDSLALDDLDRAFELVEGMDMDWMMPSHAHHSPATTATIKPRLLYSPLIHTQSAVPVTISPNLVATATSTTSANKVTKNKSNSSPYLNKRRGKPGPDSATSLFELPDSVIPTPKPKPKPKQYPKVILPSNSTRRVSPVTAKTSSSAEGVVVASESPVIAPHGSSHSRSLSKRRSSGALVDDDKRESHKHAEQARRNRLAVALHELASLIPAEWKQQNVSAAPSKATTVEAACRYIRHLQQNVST
Sequence	fluorescence intensity
AAGTTAAAACCTGTTGTCGTGGGTAAATATGATAGTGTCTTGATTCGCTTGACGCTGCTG	7720 a.u.
TTGTCTCAACGCCATCACGTGACTCGCACTGCCTGCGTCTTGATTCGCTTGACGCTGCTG	12500 a.u.
ATCGTTTTGTTGACCAGCATGATAAATTCTGGAGCCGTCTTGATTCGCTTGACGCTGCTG	4320 a.u.
CTTTCCCGATCTTGTCACGGAACTTTAGCACATTTGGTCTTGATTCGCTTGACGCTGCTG	3940 a.u.
CGTCCTAGCGATTGAAAAGTGGGTGCCATGAGGAAGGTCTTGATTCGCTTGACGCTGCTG	6470 a.u.
GGGATCAAGACCCATCTCGTGCTTTATACCCGGGTCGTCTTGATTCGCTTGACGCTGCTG	8670 a.u.
CTTCTGTAAATTTGGTTCGTGGGTGGACGCGCCCCGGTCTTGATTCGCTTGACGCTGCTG	6630 a.u.
AAATTACTAAGTTGTGTGGTGGGTGACGCCGTATGAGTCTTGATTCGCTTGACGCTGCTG	5640 a.u.
AAACTGGCAGCGATATGCATGACAGTGGGGAAAGTAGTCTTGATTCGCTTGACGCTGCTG	6470 a.u.
CAGTGGAATCTTCATCACATGCTCGAACCGGCTTGAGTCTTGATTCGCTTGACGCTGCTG	8950 a.u.
TAGTCGGAGTAGGCACACAATTCAGGGTTGTTGATCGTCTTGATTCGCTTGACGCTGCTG	4430 a.u.
CTTTCCCGATCTTGATATGTGGGTGTAGCACATTTGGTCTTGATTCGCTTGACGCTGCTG	4980 a.u.
CGTCCTAGTGATTGGGAAGTGGGTGCCATGAGGAAGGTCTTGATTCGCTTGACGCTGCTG	6970 a.u.

Sample 4 — method: RNA Bind-n-Seq; form: RNA; medium: in vitro; tested at: 365 nM; reference: no-protein control; direction: higher = stronger binding
Target: RNA binding protein fox-1 homolog 2, RRM domain, GST-SBP tag (RBFOX2, Homo sapiens, UniProt O43251-10, residues 100-194)
Setting: natural RNA segment, single round, ends assumed
Residues (chain): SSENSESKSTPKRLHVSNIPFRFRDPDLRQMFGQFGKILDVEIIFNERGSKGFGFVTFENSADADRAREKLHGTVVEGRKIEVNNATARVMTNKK
Sequence	RBNS enrichment (R)
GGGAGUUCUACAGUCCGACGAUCUAAAUUUAAAGAUCACCUCUCUGCAUUUGUUUUUAAAUUAUGCUAAUACACCACACAUUAUGUUGGUAUGUUUUGUUCUGUACUUUCUUUAAAAAAAAAAAAAAAACUUGUGGAAUUCUCGGGUGCCAA	1.98
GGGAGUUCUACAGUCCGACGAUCUUGUACCCCCACCCCCUGCACCUCCCUGCGAUCUGGCUGGCUUGGAUCUCAUUUUUUAACCCCUUCCUGUCUUGCCUGUCCCAUAGAUAAGGCCUGUGUGCUGCUCUCAUUGGAAUUCUCGGGUGCCAA	1.44
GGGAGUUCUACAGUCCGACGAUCAGAACACGAGGGGAACCAGGGGACUUCGAAGGCAAGGUAAUUGUUGUGAAAAGUCUGUAAAUGCUUCUAAUUCUUCCCCCCUCUUAAAAUCAUAAUAGUUGUACAGAAUUUGGAAUUCUCGGGUGCCAA	0.476
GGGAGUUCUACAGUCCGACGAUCGUGAGGGUUUCAGUACAAAUGCUGCUGUCUAUUUCUGUGCACUUAACAAUGGAACCCAAACAGAAGGAAGAAAGCCUUGAUACCAAAAUUGGGAGUGAGGAUGUGUCCAUUGGAAUUCUCGGGUGCCAA	0.485
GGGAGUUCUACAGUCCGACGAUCUCACUCCAUCCUGCACUUUACCCACAGGACACCUGGAGGGUCCCCCAGCCCUGCUUGCUUUUGUGAACGUCGUGUGAGUACACCGAGGUGUUGCAGCUUUCCUUCCCUCUUGGAAUUCUCGGGUGCCAA	0.494
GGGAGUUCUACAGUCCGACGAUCAUUUUAUUUGGCCACCUUCAGGUGAGACUAUCCAUAGACACAUGCUAGGAUAGGCCCCGCUGGGAGGGCAGUUACAGGAGAGAGUAGGUGGUGGUGACGUGAGGGCUGUGUGGAAUUCUCGGGUGCCAA	1.13
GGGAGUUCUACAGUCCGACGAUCGGAAGGGGAAGCCCCCACACAGAGACCCCACUGGGACACUGCCUAGUAGAGCUGUCAGAAGAAGGCCACCGUCCUCCAGACAUCAGAAUGGUAUAUCCACUGACAGCUUGUGGAAUUCUCGGGUGCCAA	0.213

Excerpt of the above (sample 3):
Sequence	fluorescence intensity
AAGTTAAAACCTGTTGTCGTGGGTAAATATGATAGTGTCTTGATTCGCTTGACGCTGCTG	7720 a.u.
TTGTCTCAACGCCATCACGTGACTCGCACTGCCTGCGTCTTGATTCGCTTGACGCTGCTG	12500 a.u.
ATCGTTTTGTTGACCAGCATGATAAATTCTGGAGCCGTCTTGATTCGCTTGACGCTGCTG	4320 a.u.
CTTTCCCGATCTTGTCACGGAACTTTAGCACATTTGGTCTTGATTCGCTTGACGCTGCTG	3940 a.u.
CGTCCTAGCGATTGAAAAGTGGGTGCCATGAGGAAGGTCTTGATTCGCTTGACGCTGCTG	6470 a.u.
GGGATCAAGACCCATCTCGTGCTTTATACCCGGGTCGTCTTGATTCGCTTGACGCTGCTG	8670 a.u.
